Results from different studies.
Parts stem from different laboratories: compare values within a part only. Substitutions count along the parent as printed.

Block 1 — technique: DNA-protein interaction ELISA; form: double-stranded DNA, one strand shown; matrix: in vitro, bacterial lysate; concentration: not given; notes: whole dsDNA probe, crude lysate protein; baseline: highest signal in screen; reading: higher = stronger binding; endpoint: relative absorbance
Target: Probable WRKY transcription factor 33, C-terminal DNA-binding domain (WRKY33, Arabidopsis thaliana, UniProt Q8S8P5, residues 346-449)
Construct (chain): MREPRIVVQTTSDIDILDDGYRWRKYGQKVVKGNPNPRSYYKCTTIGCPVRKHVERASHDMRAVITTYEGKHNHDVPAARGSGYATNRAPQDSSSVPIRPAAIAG
AAAAAAGAGAATTGTCAGTGCCCAACAAAA: 69.2 % of maximum
AAAAAAGGCCGTTGGACCTCGGTCTAAAAA: 52.8 % of maximum
AAAAAACTCGACATAGAATGCGGAAAAAAA: 36 % of maximum
AAAAAATTTCTCCTTCTTTGTTCTTCAAAA: 37.2 % of maximum
AAAAAATACATTTGACTTTGGGTTTCAAAA: 100 % of maximum
AAAAAAGGTTGGTACGTCGAGTTCTTAAAA: 33.3 % of maximum
AAAAAATAAACGTGTTCATACTTAGTAAAA: 29.6 % of maximum
AAAAAACATAACCGCAAAATCCCTACAAAA: 31.4 % of maximum

Block 2 — technique: universal PBM; form: double-stranded DNA, one strand shown; matrix: in vitro; concentration: not given; reading: higher = stronger binding; endpoint: E-score
Target: Sal-like protein 4, full length isoform B (SALL4, Homo sapiens, UniProt Q9UJQ4-2, residues 1-616)
Notes: 8-mer, flanks averaged, mean of replicates
Target sequence (chain): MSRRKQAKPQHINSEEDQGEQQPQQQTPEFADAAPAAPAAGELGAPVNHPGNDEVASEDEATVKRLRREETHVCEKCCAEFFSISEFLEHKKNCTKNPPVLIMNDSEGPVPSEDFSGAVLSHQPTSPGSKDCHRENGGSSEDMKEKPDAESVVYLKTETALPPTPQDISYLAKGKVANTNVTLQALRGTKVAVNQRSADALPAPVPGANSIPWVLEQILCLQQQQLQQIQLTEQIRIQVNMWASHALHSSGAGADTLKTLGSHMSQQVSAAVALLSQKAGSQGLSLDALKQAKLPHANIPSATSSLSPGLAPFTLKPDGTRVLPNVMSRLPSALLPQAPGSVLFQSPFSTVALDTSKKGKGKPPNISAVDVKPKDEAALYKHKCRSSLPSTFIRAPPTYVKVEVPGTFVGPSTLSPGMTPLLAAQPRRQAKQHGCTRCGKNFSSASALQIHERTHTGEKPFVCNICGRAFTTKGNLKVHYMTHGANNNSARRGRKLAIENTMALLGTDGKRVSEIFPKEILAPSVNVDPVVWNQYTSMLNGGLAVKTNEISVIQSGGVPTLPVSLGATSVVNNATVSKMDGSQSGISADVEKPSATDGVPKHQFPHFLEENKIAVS
TGGGCGAA: -0.064
AAAGAAGA: 0.165
ATCATGCA: 0.172
CTAGGGCA: -0.177
AAGAACGG: -0.177
GTCGGCCA: -0.208
GCTCTATA: 0.107
GAGAGATC: -0.125

Block 3 — technique: competition protein-binding microarray; form: double-stranded DNA, one strand shown; matrix: in vitro; concentration: 2 µM; together with: Cbf1 competitor, 0.05 µM; reading: higher = stronger binding; endpoint: fluorescence intensity; constant ends, left off below: … GTCTTGATTCGCTTGACGCTGCTG
Target: Phosphate system positive regulatory protein PHO4, full length, GST-tagged (PHO4, Saccharomyces cerevisiae, UniProt P07270, residues 1-312)
Notes: whole 60-bp probe, lowest competitor level
Construct (chain): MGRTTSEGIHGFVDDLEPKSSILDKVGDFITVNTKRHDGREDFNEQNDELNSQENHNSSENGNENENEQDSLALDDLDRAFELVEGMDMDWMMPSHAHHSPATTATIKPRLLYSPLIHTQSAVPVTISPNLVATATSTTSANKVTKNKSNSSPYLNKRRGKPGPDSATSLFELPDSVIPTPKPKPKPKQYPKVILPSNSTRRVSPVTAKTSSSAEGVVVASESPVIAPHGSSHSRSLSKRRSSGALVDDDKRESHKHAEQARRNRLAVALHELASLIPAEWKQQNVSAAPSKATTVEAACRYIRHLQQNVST
GTTGAGCGAACGCGACTCGTGGGACGGCCACTTCGC: 8820 a.u.
AAAGTCTGCGACAATCACGTGCTAAAGCTGGTCTCA: 16000 a.u.
CGACTTGCGAGAAGACACGTGCGCGGAAGGAGCTTG: 19800 a.u.
CGGGGTTAAGTTTGCTAGGTGGGTGGCTTGCAGCAG: 4640 a.u.
GTCTTGTCTCATTTTCACGTGTTATTCCCCACTTCA: 12800 a.u.
AAATTACTAAGTTGTCACGCCACTTACCCCGTATGA: 5030 a.u.
TGGCCCTTTGTTGGGCATGTGCTGCAAGAAAACTGG: 10700 a.u.
GCCGGAAAAAAAAAGCACGCATCCGGCAAGCACACT: 8650 a.u.

Further values, each from its own experiment
Parent: viral docking peptide; YKVKRRLVFGADD; partner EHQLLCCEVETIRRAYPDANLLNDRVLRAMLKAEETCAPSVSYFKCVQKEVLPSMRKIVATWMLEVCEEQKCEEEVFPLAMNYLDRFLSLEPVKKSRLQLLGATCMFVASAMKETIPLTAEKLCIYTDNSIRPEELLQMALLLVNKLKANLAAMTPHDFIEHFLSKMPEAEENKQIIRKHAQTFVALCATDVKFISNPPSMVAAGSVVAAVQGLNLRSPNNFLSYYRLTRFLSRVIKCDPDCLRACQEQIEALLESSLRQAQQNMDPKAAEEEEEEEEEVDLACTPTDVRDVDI
YKVYRRLVFGADD [K4Y]  normalised enrichment score (CCND1, cyclin fold, Cln2 fusion (human); yeast growth competition, sequencing; yeast; strong parent motif; baseline: not given, higher = stronger binding): 0.745

Some of these lines once more (block 2):
AAGAACGG: -0.177
CTAGGGCA: -0.177
